Assay results from different studies.
Cell line: IGROV-1

For `COc1ccc(OC)c(-c2nc3ccc(-c4nc5ccc(N6CCN(C)CC6)cc5[nH]4)cc3[nH]2)c1`, the growth percent was 94.7% (SRB; 10 µM, 48 h).
For `O=C1NC(=NCc2cccs2)S/C1=C\c1ccc2ncccc2c1`, the IC50 was greater than 10 µM (MTS; NCI60 panel).
With `O=c1ccn(Cc2cn(-c3cc4ccccc4oc3=O)nn2)c(=O)[nH]1` the growth was 91.5% (NCI60 single dose; 10 µM).
For `C#C[C@@]1(O)[C@@H](CO)O[C@@H](n2cc(Cl)c3c(N)ncnc32)[C@@H]1O`, the TGI was 0.475 µM (SRB; NCI-60 screen).
`O=C1NC(c2ccccc2)(c2ccccc2)C(=O)N1Cc1cn(-c2cc3ccccc3oc2=O)nn1` gave a growth of 61.4% (NCI60 single dose; 10 µM).
For `CCCN1CCN(c2ccc3[nH]c(-c4ccc5[nH]c(-c6cc(OC)c(OC)c(OC)c6)nc5c4)nc3c2)CC1`, the growth percent was 101% (SRB; 10 µM, 48 h).
`O=C(Nc1nnc2n3c(nc(-c4ccc(Cl)cc4)c1-2)SCC3=O)c1ccccc1` has a cell growth of 94.6% (SRB; 10 µM, NCI60 single-dose screen; relative to: untreated).
`O=C1NC(c2ccccc2)(c2ccccc2)C(=O)N1Cc1cn(-c2c3ccccc3nc3ccccc23)nn1` has a growth of 83.3% (NCI60 single dose; 10 µM).
The IC50 of `O=C(c1cc(Cc2n[nH]c(=O)c3ccccc23)ccc1F)N1CCN(C(=O)C2CC2)CC1` is reported as 0.939 µM.
For `Cc1cc(=O)[nH]c(=O)n1Cc1cn(-c2cc3ccccc3oc2=O)nn1`, the growth was 97.4% (NCI60 single dose; 10 µM).
`CCCCN1CCN(c2ccc3[nH]c(-c4ccc5[nH]c(-c6ccc(OCC)cc6)nc5c4)nc3c2)CC1` gave a growth percent of 71.9% (SRB; 10 µM, 48 h).
For `C#C[C@@]1(O)[C@@H](CO)O[C@@H](n2cc(F)c3c(N)ncnc32)[C@@H]1O`, the TGI was 1.42 µM (SRB; NCI-60 screen).
With `S=C([S][Au-][P+](CCCCCC[P+]([Au-][S]C(=S)n1cccn1)(c1ccccc1)c1ccccc1)(c1ccccc1)c1ccccc1)n1cccn1` the log10 TGI was -4.77 (cell growth, NCI-60 screen; ovarian cancer).
The TGI of `CCN(CC)c1ccc(C=NNC(=O)CSc2nc3ccccc3c(=O)n2Cc2ccc(S(N)(=O)=O)cc2)c(O)c1` is reported as greater than 100 µM (NCI five-dose screen).
With `CCOC(=O)CSc1nc(-c2ccc(Cl)cc2)c2c(NC(=O)c3ccccc3)nnc-2[nH]1` the cell growth was 92.5% (SRB; 10 µM, NCI60 single-dose screen; relative to: untreated).
`Cn1cncc1C1=CN(c2ncnc3[nH]cnc23)CCS1` gave a GI50 of 12.3 µM (ovarian cancer).
The growth percent of `CCCCN1CCN(c2ccc3[nH]c(-c4ccc5[nH]c(-c6cc(OC)c(OC)c(OC)c6)nc5c4)nc3c2)CC1` is reported as 94.2% (SRB; 10 µM, 48 h).
For `O=C(Nc1nnc2n3c(=S)[nH][nH]c3nc(-c3ccc(Cl)cc3)c1-2)c1ccccc1`, the cell growth was 97.5% (SRB; 10 µM, NCI60 single-dose screen; relative to: untreated).
`CCCCN1CCN(c2ccc3nc(-c4ccc5nc(-c6cc(OC)ccc6OC)[nH]c5c4)[nH]c3c2)CC1` gave a growth percent of 94.5% (SRB; 10 µM, 48 h).
The cell growth of `O=C(Nc1nnc2[nH]c(=S)[nH]c(-c3ccc(Cl)cc3)c1-2)c1ccccc1` is reported as 107% (SRB; 10 µM, NCI60 single-dose screen; relative to: untreated).
The growth percent of `CCOc1ccc(-c2nc3cc(-c4nc5cc(N6CCN(C)CC6)ccc5[nH]4)ccc3[nH]2)cc1OCC` is reported as 50.5% (SRB; 10 µM, 48 h).
With `Cc1cc(=O)[nH]n1-c1nc(-c2ccc(Cl)cc2)c2c(NC(=O)c3ccccc3)nnc-2[nH]1` the cell growth was 110% (SRB; 10 µM, NCI60 single-dose screen; relative to: untreated).

For quick reference, copied from above:
With `CCOC(=O)CSc1nc(-c2ccc(Cl)cc2)c2c(NC(=O)c3ccccc3)nnc-2[nH]1` the cell growth was 92.5% (SRB; 10 µM, NCI60 single-dose screen; relative to: untreated).
With `S=C([S][Au-][P+](CCCCCC[P+]([Au-][S]C(=S)n1cccn1)(c1ccccc1)c1ccccc1)(c1ccccc1)c1ccccc1)n1cccn1` the log10 TGI was -4.77 (cell growth, NCI-60 screen; ovarian cancer).
The IC50 of `O=C(c1cc(Cc2n[nH]c(=O)c3ccccc23)ccc1F)N1CCN(C(=O)C2CC2)CC1` is reported as 0.939 µM.
